{"data": "Measurements pooled from the literature", "note": "Each numbered part is a random draw from the data of one study; scales do not carry over between parts."}
{"data": "Sample 1", "target": "UBE2B UBC core domain (UniProt P63146)", "method": "yeast two-hybrid", "matrix": "yeast", "setting": "mostly zero background", "reference": "not given", "reading": "higher = stronger interaction", "B1": "TRIM15 RING domain (UniProt Q9C019); chain SLKVVHELPACTLCAGPLEDAVTIPCGHTFCRLCLPALSQMGAQSSGKILLCPLCQEEEQAETPMA", "B2": "TRIM35 RING domain (UniProt Q9UPQ4); chain PSRSFKEELLCAVCYDPFRDAVTLRCGHNFCRGCVSRCWEVQVSPTCPVCKDRASPADLRT", "B3": "RNF112 RING domain (UniProt Q9ULX5); chain QPMAPRELPTCSICLERLRDPISLDCGHDFCIRCFSTHRLPGCEPPCCPECRKICKQKRGLR", "B4": "MSL2 RING domain (UniProt Q9HCI7); chain LLPYFRQSLSCCVCGHLLQDPIAPTNSTCQHYVCKTCKGKKMMMKPSCSWCKDYEQFEENKQ", "B5": "RNF5 RING domain (UniProt Q99942); chain ERGGAGATFECNICLETAREAVVSVCGHLYCWPCLHQWLETRPERQECPVCKAGISREKVVP", "B6": "PEX2 RING domain (UniProt P28328); chain DNTLATSGKECALCGEWPTMPHTIGCEHIFCYFCAKSSFLFDVYFTCPKCGTEVHSLQPLK", "B7": "RNF43 RING domain (UniProt Q68DV7); chain SGSSCSSAPVCAICLEEFSEGQELRVISCLHEFHRNCVDPWLHQHRTCPLCMFNITEGDSFS", "B8": "TRIM55 RING domain (UniProt Q9BYV6); chain TMDNLEKQLICPICLEMFTKPVVILPCQHNLCRKCASDIFQASNPYLPTRGGTTMASGGRFRCPSCRHEVVLDRHG", "B9": "TRIM38 RING domain (UniProt O00635); chain STKKMMEEATCSICLSLMTNPVSINCGHSYCHLCITDFFKNPSQKQLRQETFCCPQCRAPFHMDSLRP", "B10": "RNF4 RING domain (UniProt P78317); chain TGLRPSGTVSCPICMDGYSEIVQNGRLIVSTECGHVFCSQCLRDSLKNANTCPTCRKKINHKRYHP", "B11": "PHF7 RING domain (UniProt Q9BWX1); chain IQHGHVGEESCILCCEDLSQQSVENIQSPCCSQAIYHRKCIQKYAHTSAKHFFKCPQCNNRKEFPQEML", "chain of UniProt P63146 (whole entry, looked up)": "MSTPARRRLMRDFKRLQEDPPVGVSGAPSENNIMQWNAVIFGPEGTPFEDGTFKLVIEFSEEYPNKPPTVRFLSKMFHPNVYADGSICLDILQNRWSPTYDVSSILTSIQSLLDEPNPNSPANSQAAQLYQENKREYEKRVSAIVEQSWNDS"}
{"Molecule": "B1 (TRIM15 RING domain)", "lacZ reporter activity": 0}
{"Molecule": "KIKDLNEHIVCCLCAGYFVDATTITECLHTFCKSCIVKYLQTSKYCPMCNIKIHETQPLL (PCGF1 RING domain (UniProt Q9BSM1))", "lacZ reporter activity": 0}
{"Molecule": "B2 (TRIM35 RING domain)", "lacZ reporter activity": 0}
{"Molecule": "B3 (RNF112 RING domain)", "lacZ reporter activity": 0}
{"Molecule": "SYEDKSNDFVCPICFDMIEEAYMTKCGHSFCYKCIHQSLEDNNRCPKCNYVVDNIDHLY (COP1 RING domain (UniProt Q8NHY2))", "lacZ reporter activity": 0}
{"Molecule": "B4 (MSL2 RING domain)", "lacZ reporter activity": 0}
{"Molecule": "B5 (RNF5 RING domain)", "lacZ reporter activity": 0}
{"Molecule": "B6 (PEX2 RING domain)", "lacZ reporter activity": 0}
{"Molecule": "MANWVFCNRCFQPPHRTSCFSLTNCGHVYCDACLGKGKKNECLICKAPCRTVLLSK (RNF212 RING domain (UniProt Q495C1))", "lacZ reporter activity": 0}
{"Molecule": "B7 (RNF43 RING domain)", "lacZ reporter activity": 0}
{"Molecule": "B8 (TRIM55 RING domain)", "lacZ reporter activity": 0}
{"Molecule": "B9 (TRIM38 RING domain)", "lacZ reporter activity": 0}
{"Molecule": "KRQCSDVDDICSICQAEFQKPILLICQHIFCEECMTLWFNREKTCPLCRTVISDHINKW (RNFT1 RING domain (UniProt Q5M7Z0))", "lacZ reporter activity": 0}
{"Molecule": "B10 (RNF4 RING domain)", "lacZ reporter activity": 0}
{"Molecule": "B11 (PHF7 RING domain)", "lacZ reporter activity": 0}
{"data": "Sample 2", "target": "Fragile X messenger ribonucleoprotein 1, C-terminal low-complexity region (Fmr1, Mus musculus, UniProt P35922)", "method": "RNA Bind-n-Seq", "form": "RNA", "matrix": "in vitro", "tested at": "200 nM", "setting": "whole 134-nt RNA, ends assumed", "together with": "150 mM LiCl", "reference": "input library", "reading": "higher = stronger binding", "each molecule": "7-deaza-guanosine replaces G", "all sequences stand within": "GGGAGUUCUACAGUCCGACGAUC … UGGAAUUCUCGGGUGUCAAGG"}
{"Oligonucleotide": "UAACUUUAGAGGAGGAUCUGAUGGAUACGGCAGUGGACGUGGAUUUGGGGAUGGCUAUAAUGGGUAUGGAGGAGGACCUGGAGGUGGCAA", "log2 enrichment": 0.0561}
{"Oligonucleotide": "CCUGUGCUACACAUCGUAUGUACCGAAUCAAAUUUUUAAAUUUUUUUAAACCCCCCCAAAAAAGUAUUAUGUUACGCCGUUCGGAUCUGC", "log2 enrichment": 1.3}
{"Oligonucleotide": "CCUGUGCUACACAUCGUAUGUACCGAAUCGGGGAAAAAAGGGGAAAAAAGGAAAAAAGGGGAAAGUAUUAUGUUACGCCGUUCGGAUCUG", "log2 enrichment": 0.983}
{"Oligonucleotide": "GCAGGAAGUAAAAACAAAUGGAAAUGCUUCGGAUAGUGGCAGGGGUGGGGGUUGCUAAGGAAAGGGUGUGAUGGGAGUGGGUAAAGAGUU", "log2 enrichment": 1.22}
{"Oligonucleotide": "UAACUUUAGAGUAGGAUCUGAUGGAUAUGGCAGUGGACGUGGAUUUGGGGAUGGCUAUAAUGGGUAUGGAGGAGGACCUGGAGGUGGCAA", "log2 enrichment": -0.0145}
{"Oligonucleotide": "AAGUCCUGUGCUACACAUCGUAUGUACCGAAUCGGGAAAAGGAAAAGGGAAAAGGGGAAAGUAUUAUGUUACGCCGUUCGGAUCUGCACU", "log2 enrichment": 0.377}
{"Oligonucleotide": "UAACUUUAGAGGAGGAUCUGAUGGAUAUGGCAGUGGACGUGGAUUUGGGGAUGGCUAUAAUGGGUAUGGAGGAUGACCUGGAGGUGGCAA", "log2 enrichment": 0.133}
{"Oligonucleotide": "CUCAAGUCCUGUGCUACACAUCGUAUGUACCGAAUCGGUGGUUUGGAAAAAGGAAAGUAUUAUGUUACGCCGUUCGGAUCUGCACUUCCA", "log2 enrichment": 0.0371}
{"Oligonucleotide": "CCUGUGCUACACAUCGUAUGUACCGAAUCGGGGUGGGGUUUUUUUGGGGAAAAAAAGGGGAAAGUAUUAUGUUACGCCGUUCGGAUCUGC", "log2 enrichment": -1.86}
{"Oligonucleotide": "GCAGGUAGUAAAAACAAAUGGAAAUGCUUCGGAUAGUGGCAGGGGUGGGGGUUGCUAAGGAAAGGGUGGGAUGGGAGUGGGUAAAGAGUU", "log2 enrichment": 1.57}
{"Oligonucleotide": "UUGGGCUGCCCAUCACCGUGGCCCAUGUGGAUGGCCAAACCCACAUGUUAUUUGGCUCUGACCGGAUGGAGCUGCUGGCGCACCUGCUGG", "log2 enrichment": -0.931}
{"data": "Sample 3", "target": "Histone acetyltransferase KAT6A, winged helix 2, GST fusion (KAT6A, Homo sapiens, UniProt Q92794, residues 85-181)", "method": "protein binding microarray", "form": "double-stranded DNA, one strand shown", "matrix": "in vitro", "tested at": "not given", "setting": "8-mer, flanks averaged, mean of 2 arrays, mostly near background", "reference": "not given", "reading": "higher = stronger binding", "Target sequence (chain)": "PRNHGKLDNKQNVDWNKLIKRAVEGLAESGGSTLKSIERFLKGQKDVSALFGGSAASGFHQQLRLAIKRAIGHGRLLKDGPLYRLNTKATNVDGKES"}
{"Oligonucleotide": "AAAATGGG", "E-score": -0.12}
{"Oligonucleotide": "GTGGATTA", "E-score": -0.0983}
{"Oligonucleotide": "GTGGCCGA", "E-score": 0.11}
{"Oligonucleotide": "CATTGCGC", "E-score": -0.00499}
{"Oligonucleotide": "CCGTATCC", "E-score": 0.0875}
{"Oligonucleotide": "ACGAGAAT", "E-score": -0.0782}
{"Oligonucleotide": "CAGCAAAA", "E-score": 0.0483}
{"Oligonucleotide": "ACGGCGGA", "E-score": 0.0645}
{"Oligonucleotide": "CCCTGACA", "E-score": -0.074}
{"Oligonucleotide": "GATCCACA", "E-score": 0.0264}
{"Oligonucleotide": "ATTCTAGG", "E-score": -0.0897}
{"Oligonucleotide": "ACATCTGA", "E-score": -0.157}
{"Oligonucleotide": "AGAGCCGA", "E-score": 0.0539}
{"Oligonucleotide": "ATGTGCAG", "E-score": -0.0896}
{"Oligonucleotide": "ACTGTCTG", "E-score": 0.0779}
{"Oligonucleotide": "ACTGACGG", "E-score": 0.129}
{"Oligonucleotide": "CGAGAAGA", "E-score": -0.095}
{"Oligonucleotide": "AGGGACTC", "E-score": -0.172}
{"Oligonucleotide": "TCGGTCAA", "E-score": -0.145}
{"Oligonucleotide": "AGGCGAAA", "E-score": 0.00938}
{"Oligonucleotide": "ACTTGAAA", "E-score": 0.0512}
{"Oligonucleotide": "CAAGATAA", "E-score": -0.171}
{"Oligonucleotide": "AAGATAAA", "E-score": 0.0177}
{"Oligonucleotide": "CGACCCAC", "E-score": 0.137}
{"Oligonucleotide": "GTTGGCTA", "E-score": 0.013}
{"data": "Sample 4", "target": "Interferon regulatory factor 3, full length, phosphomimetic (IRF3, Homo sapiens, UniProt Q14653, residues 1-427, S386D/S396D/S398D/S402D/T404D/S405D)", "method": "protein-binding microarray", "form": "double-stranded DNA, one strand shown", "matrix": "in vitro", "tested at": "2540 nM top", "setting": "60-bp whole probe", "together with": "salmon DNA 0.4 mg/ml", "reference": "random background probes", "reading": "higher = stronger binding", "all sequences stand within": "GCCTAGCAC … GTCTTGATTCGCTTGACGCTGCTG", "chain of UniProt Q14653 (whole entry, unmodified, looked up)": "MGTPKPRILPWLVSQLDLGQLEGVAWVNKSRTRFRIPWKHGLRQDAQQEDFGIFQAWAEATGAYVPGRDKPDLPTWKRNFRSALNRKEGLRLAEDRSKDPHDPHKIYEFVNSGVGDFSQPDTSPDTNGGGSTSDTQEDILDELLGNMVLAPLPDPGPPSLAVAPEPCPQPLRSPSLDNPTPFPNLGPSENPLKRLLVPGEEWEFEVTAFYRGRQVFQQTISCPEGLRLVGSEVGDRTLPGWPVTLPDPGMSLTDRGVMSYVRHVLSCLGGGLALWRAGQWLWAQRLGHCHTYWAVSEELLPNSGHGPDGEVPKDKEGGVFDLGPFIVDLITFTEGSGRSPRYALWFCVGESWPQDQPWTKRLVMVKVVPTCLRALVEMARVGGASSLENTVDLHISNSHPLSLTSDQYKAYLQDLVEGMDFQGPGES"}
{"Oligonucleotide": "GACGGACTGGCCTTTCGGGACGTGCTA", "fitted relative affinity [z-score]": -0.575}
{"Oligonucleotide": "GTCGATATCAGACTGGAGACGTGCTAG", "fitted relative affinity [z-score]": 0.984}
{"Oligonucleotide": "TCACCTCTCTCTTTCCAACTGTGCTAG", "fitted relative affinity [z-score]": 1.73}
{"Oligonucleotide": "TCACTTTGGCCTCTAGGACTGTGCTAG", "fitted relative affinity [z-score]": -0.226}
{"Oligonucleotide": "TTAGATAACAGTATCGATTAGTGCTAG", "fitted relative affinity [z-score]": 0.744}
{"Oligonucleotide": "TCATCTTTCTACATAGAACTGTGCTAG", "fitted relative affinity [z-score]": 1.67}
{"Oligonucleotide": "TCATTTTTCTGCTTAGAACTGTGCTAG", "fitted relative affinity [z-score]": 1.76}
{"Oligonucleotide": "CCTTTTTTTTTTTTTCTGATGTGCTAG", "fitted relative affinity [z-score]": 2.75}
{"Oligonucleotide": "GACAATTTCAGTATCGAGACGTGCTAG", "fitted relative affinity [z-score]": 2.09}
{"Oligonucleotide": "TCATGTCTCTGGCCTGGGACTGTGCTA", "fitted relative affinity [z-score]": -0.54}
{"Oligonucleotide": "TTAGGACTGCCTCTCCTTTAGTGCTAG", "fitted relative affinity [z-score]": -0.673}
{"Oligonucleotide": "TATTTTCTGAATGTCTTCCCGTGCTAG", "fitted relative affinity [z-score]": 2.21}
{"Oligonucleotide": "TCAGAACTGAGTCTCGATTAGTGCTAG", "fitted relative affinity [z-score]": 0.0658}
{"Oligonucleotide": "GTAGATATCAGACTGGATTAGTGCTAG", "fitted relative affinity [z-score]": 0.133}
{"Oligonucleotide": "GACGATATCAGTTTCGGGACGTGCTAG", "fitted relative affinity [z-score]": 4.29}
{"Oligonucleotide": "GACGGACTGCTATTGCTGACGTGCTAG", "fitted relative affinity [z-score]": -0.56}
{"Oligonucleotide": "GACTGACTGGGTCTCGGGACGTGCTAG", "fitted relative affinity [z-score]": -0.749}
{"Oligonucleotide": "GACGGTATCGGTATCGGGTCGTGCTAG", "fitted relative affinity [z-score]": 5.08}
{"Oligonucleotide": "TTAGAACTGGGGACTGGACTAGTGCTA", "fitted relative affinity [z-score]": -0.93}
{"Oligonucleotide": "TTAGGTCTCCTACTGCTTTAGTGCTAG", "fitted relative affinity [z-score]": 0.679}
{"Oligonucleotide": "TTACGTTTCGGACTGGGTTAGTGCTAG", "fitted relative affinity [z-score]": 3.41}
{"Oligonucleotide": "GACGGTTTCGGGTTTCAGGACGTGCTA", "fitted relative affinity [z-score]": 5.74}
{"Oligonucleotide": "TCATAACTCATTCTCTGACTGTGCTAG", "fitted relative affinity [z-score]": 1.38}
